Measurements collected from several papers.
Every numbered part comes from another study and shows a few of its results, in no order. Positions count from the first letter of the parent shown.

Block 1
Target: Interferon regulatory factor 5, full length, phosphomimetic (IRF5, Homo sapiens, UniProt Q13568-2, residues 1-514, S451D/S453D/S456D/S462D)
Technique: protein-binding microarray
Form: double-stranded DNA, one strand shown
Sample: in vitro
Tested at: 940 nM top
Setting: 60-bp whole probe
Together with: salmon DNA 0.4 mg/ml
Relative to: random background probes
Direction: higher = stronger binding
Measurement: fitted relative affinity
Constant ends, left off below: GCCTAGCAC … GTCTTGATTCGCTTGACGCTGCTG
GACGGTTTCGGTTCCGTGACGTGCTAG: 12.8 z-score
GACGGTTTCCTTCTTCTGACGTGCTAG: 2.02 z-score
GATGGACTGCTTCTCCTGACGTGCTAG: -0.000212 z-score
GACGATATCGGGTATCAAGACGTGCTA: 0.056 z-score
GACGGTTTCGACTTGCGGGACGTGCTA: 7.47 z-score
TTAGGTTACCTTTTCCTTTAGTGCTAG: 0.305 z-score
GCTTCTACACAGAGCATGGGGTGCTAG: -0.241 z-score

Block 2
Target: Sal-like protein 4, full length isoform B (SALL4, Homo sapiens, UniProt Q9UJQ4-2, residues 1-616)
Technique: universal PBM
Form: double-stranded DNA, one strand shown
Sample: in vitro
Tested at: not given
Setting: 8-mer, flanks averaged, mean of replicates
Direction: higher = stronger binding
Measurement: E-score
CCCGCGCG: -0.195
GGATGACA: 0.0272
AAGGTTAC: -0.0233
GCCTCTAA: -0.121
CAGGTGGC: -0.182
TATAGGGA: 0.0988
ATCATGCG: -0.017

Block 3
Target: ABI1, truncated, D143A, DHFR fusion (Arabidopsis thaliana)
Technique: DHFR PCA, deep sequencing
Sample: yeast
Setting: methotrexate growth selection, single substitutions
Together with: (+)-ABA 2500 µM
Relative to: wild-type fitted maximum
Direction: higher = stronger binding
Measurement: relative binding score
Parent: PYL1, truncated, DHFR fusion (Arabidopsis thaliana); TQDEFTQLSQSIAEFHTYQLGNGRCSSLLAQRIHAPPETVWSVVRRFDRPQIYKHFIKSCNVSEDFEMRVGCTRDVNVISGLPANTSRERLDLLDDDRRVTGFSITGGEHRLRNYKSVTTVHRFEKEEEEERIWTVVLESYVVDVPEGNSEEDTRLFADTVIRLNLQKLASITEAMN
Q167D: 93.5%
E174M: 93.2%
I12M: 93.5%
G148N: 99.4%
E64I: 97.3%
F47D: -3.34%

Mixed results
PhoQ, residues 284 288 289 292 302 303 AGGCYF
fold induction (PhoP, residues 12 14 15 18 19 NFCKL (Escherichia coli, UniProt P23836); Sort-seq, refers to: YFP reporter; E. coli; PhoQ-PhoP variant library, together with: 10 µM Mg2+; relative to: high Mg2+ state, higher = stronger signaling): 0.552

Some of these lines once more (block 3):
E174M: 93.2%
E64I: 97.3%
